Assay results of several laboratories.
Numbered parts are unrelated; each lists some results of a single study.

Set 1
Target: RNA binding protein fox-1 homolog 2, RRM domain, GST-SBP tag (RBFOX2, Homo sapiens, UniProt O43251-10, residues 100-194)
Technique: RNA Bind-n-Seq
Form: RNA
Matrix: in vitro
Concentration: 365 nM
Notes: natural RNA segment, single round, ends assumed
Baseline: no-protein control
Direction: higher = stronger binding
All sequences stand within: GGGAGUUCUACAGUCCGACGAUC … UGGAAUUCUCGGGUGCCAA
Construct (chain): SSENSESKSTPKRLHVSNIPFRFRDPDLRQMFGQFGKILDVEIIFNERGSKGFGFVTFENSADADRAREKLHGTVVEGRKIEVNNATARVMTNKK
Sequence	RBNS enrichment (R)
UUAUAACAAAAUAAUUAUGGUUGAAAUGUCUGUGGUUCCUUGGAAAUGCUGCGCUCUUUGUGUUUUUCCAUCAUUAGUGCAGUUGGAAUGAAUGUGUAUAGGUCAGAGGU	3.28
CAGUCGAUAAGGCUGAGUCGGGGAGGCUCAGACCAUUGAGGCUUGAAAUUGCAAAACUCUUGUAGCUCAUUCUGAAAUCUUUCCCCUGUAGUCCAGAACUGGGGAGGCCA	0.418
CAGUUUUCUCACAGGUCUGCAAUUCUGUUUUUCUCCAAGUACAUUAUGACCCCCUCAUCCUUCUCUUGAACUGGAGAGGGGAAGAAAUGAAAGGCAUGCCCACGUCCGUC	0.555
UUAAGACUAUAAAGUACUACUGUAGGAUUGCAAUUUCCAUUCUUUUAAAUGGGUUAAAAAGAUGUUAAUAUAACAAUAUAUGAUAUAUAAACCUUAAGUGAAAUGAAAGA	0.565
AUUCAAAAAGAUAGUUAAAUCAUGCUACUGAGCCUAUGAUGUCGUUGAUGUUUGGUUCGGUAUUCUUGCAUAAAACUUAAAAAUUAAACGAACGCUGCAGAGUUUACUGA	0.25
ACCCCCUUCCUGGGCAUCCGUUCGGGUUUUCUAACCGUUGUCUUGUUCUGGGGUGAGCGGGGAGCGCAUGCAGAGAUCCCAAGGCCUAUGUCUGGAGGGUACCAACUCCU	1.9
AAAACAGCUGUAUUUUAUGUAUGCUUUACUGAUAAGUGUGCCAAUAAUAAACUGUGUUAAUGACCAAGCAAGUGAAUCUGGCUAUUUGUGUGAGUACGUGUGUAGCAAUC	2.28
GGUAUCCAGGCUCCAACGACCUCAUGCAGGACUCAGACCUGACCCACUGAAUCCCGAGGAGAGGCUGAAAAAAUCAGAGUAGAAACCAGCAACAUUUACAAGUGUGUCUG	0.343
CAAGCUGAGGGAUACAGGUCCUGAUUUGGUAGGAAUAUUAUUCCCAAGAAAUACCCGCUCCUCACCUACUCCCUCAUCCUACCAAGGUGCCUGAAAAUGUUCAAGACUUA	0.859
UAACAUAAAAACUCAUUUUUGUAUUUCUUGGAUUACUUUGACUAUUCUAAUGUUUAAUUACAUAUGGUAACCCUAAGGCCUGGGGAGAAAAGCUUUUAAAUCUUGCCUUC	0.341
CAUUAUUAGAAAUUCCUUCUCUCAUUAUUUCAGGAUUAGUAGUUCUGUGUAAUUCAUUUUACAAUUUCAAAUUGUUCUGGUGCCAUAAAGUAUACAGACUACUUUAAAGA	0.444
UACUGGCCAAAAUCAAUGUUAUUCCAUAUUUUAUUUUUUCUAUUAAAUUAACCUAAGUUCCUGUUUAUUUGAUCUGUUCAUACCCACGUAUAAACUUCUCUGAAAGGGUA	1.17

Set 2
Target: Interferon regulatory factor 3, full length, phosphomimetic (IRF3, Homo sapiens, UniProt Q14653, residues 1-427, S386D/S396D/S398D/S402D/T404D/S405D)
Sequence of UniProt Q14653 (whole entry, unmodified, looked up): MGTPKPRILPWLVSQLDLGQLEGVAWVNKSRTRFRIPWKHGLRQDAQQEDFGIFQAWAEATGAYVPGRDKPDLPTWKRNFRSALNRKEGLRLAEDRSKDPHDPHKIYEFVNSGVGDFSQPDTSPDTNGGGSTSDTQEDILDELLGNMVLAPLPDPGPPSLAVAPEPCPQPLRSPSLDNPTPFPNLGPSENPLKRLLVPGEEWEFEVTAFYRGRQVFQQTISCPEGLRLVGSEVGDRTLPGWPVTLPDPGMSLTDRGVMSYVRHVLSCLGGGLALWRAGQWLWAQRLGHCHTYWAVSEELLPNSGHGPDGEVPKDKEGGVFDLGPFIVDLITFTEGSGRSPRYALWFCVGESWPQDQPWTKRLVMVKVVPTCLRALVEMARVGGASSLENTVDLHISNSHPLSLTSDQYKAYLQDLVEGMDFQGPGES
Technique: protein-binding microarray
Form: double-stranded DNA, one strand shown
Matrix: in vitro
Concentration: 2540 nM top
Notes: 60-bp whole probe
With: salmon DNA 0.4 mg/ml
Baseline: random background probes
Direction: higher = stronger binding
All sequences stand within: GCCTAGCAC … GTCTTGATTCGCTTGACGCTGCTG
Sequence	fitted relative affinity [z-score]
GACGGTTACGGTATCGGGACGTGCTAG	1.7
GGTGTCTAGGTTAGGGATTAGTGCTAG	-0.264
TTAGGGCTGGACACTGGGTTAGTGCTA	-1.23
TTAGGACTGGATCTCGGTTAGTGCTAG	-0.297
TCAGTTTCGTATCTTCATACTGTGCTA	7.46
CTGCCTTCAGAGCTGTCTGTGTGCTAG	-0.562
TTAGGTCTCGGTATCGGTTAGTGCTAG	2.6
TTAGGTTTCGGTTTCGGATAGTGCTAG	12.3
GACGAAATCAGTTTCGAGACGTGCTAG	3.35
TTAGGACTGGACATTCGGTTAGTGCTA	-0.348
TTAGAACTGGGGTATAGATTAGTGCTA	-0.69
GACGGTTCCGGTTTGGGGACGTGCTAG	3.33
GGTACAAACTTGTAATTATAGTGCTAG	0.502
TCATTTTCATTTTATGACACTGTGCTA	4.13
AAGGTATTATTTATTGTAGCGTGCTAG	0.38
AACGGTCTCCTTATCCTGACGTGCTAG	2.73
GACGGTCTCCTGCTCCTGACGTGCTAG	0.568
TTAGGGTCCCTTTTCCTTTAGTGCTAG	4.52
GACGAATTCAGTCTCGAGACGTGCTAG	0.868
GTTTGGGTCTTGTCTGGAGTCGTGCTA	0.122
GACGATATCGAGTTTCGAGACGTGCTA	1.31
TTAGACTTCGGGACTGGATTAGTGCTA	-0.565
TTAGGTTTCCTTTCCCTTAAGTGCTAG	10.4
GTGATTTCAGTTTTCTTTTCGTGCTAG	6.39
GACGGACTCGGGTTTCGGGACGTGCTA	0.869

Set 3
Target: Prothrombin, mature alpha-thrombin (F2, Homo sapiens, UniProt P00734)
Technique: aptamer microarray, sandwich
Form: DNA with 2'F-ANA
Matrix: in vitro
Concentration: 200 nM
Notes: whole 15-mer aptamer, many near background
With: Cy3 exosite-II aptamer, 400 nM
Direction: higher = stronger binding
Sequence: GGTTGGTGTGGTTGG
Modification	mean fluorescence intensity [a.u.]
2'F-ANA at 2 3 4 5 6 8 10 12 14	51
2'F-ANA at 2 5 6 7 8 10 11 12	54.7
2'F-ANA at 2 3 5 7 8 9 10	57.8
2'F-ANA at 1 4 5 6 8 9 11 13 15	68.5
2'F-ANA at 5 7 9 14	46.2
2'F-ANA at 1 5 6 10 11 13 15	47.8
2'F-ANA at 2 3 4 7 8 11 12	852
2'F-ANA at 1 2 10 11 13 14	53.6
2'F-ANA at 4 5 6 10 13 14 15	45.2
2'F-ANA at 1 2 3 5 7 8 11 15	57.6
2'F-ANA at 3 6 11 14	509
2'F-ANA at 2 5 8 12 14	47.3
2'F-ANA at 3 4 8 10 12 14 15	204
2'F-ANA at 1 2 3 5 8 11 12	115
2'F-ANA at 1 3 5 7 8 9 10 12 13	54.1
2'F-ANA at 1 5 7 9 12 15	108
2'F-ANA at 1 3 4 7 10	65.8
2'F-ANA at 2 3 4 8 13 14 15	257
2'F-ANA at 3 5 8 9 10 12 13 15	63.4
2'F-ANA at 1 2 8 10 11 13 14 15	63.3
2'F-ANA at 1 2 4 6 9 10 11 13 15	47.9
2'F-ANA at 3 5 6 7 9 10 11 15	57.3
2'F-ANA at 1 2 4 6 8 11 12	200
2'F-ANA at 1 4 6 8 10 14	45.6
2'F-ANA at 2 3 5 7 10 11 13 14 15	57.9

Set 4
Target: Sal-like protein 4, full length isoform B (SALL4, Homo sapiens, UniProt Q9UJQ4-2, residues 1-616)
Technique: universal PBM
Form: double-stranded DNA, one strand shown
Matrix: in vitro
Concentration: not given
Notes: 8-mer, flanks averaged, mean of replicates
Direction: higher = stronger binding
Sequence	E-score
ACCTCAAT	0.0206
ACGCCGTG	-0.253
GAGCATGA	-0.0538
ATGTTCCG	-0.0579
ACGGTCCT	-0.262
CTGAAAAG	-0.0505
AAGCAACA	0.0438
ATCGCAAG	-0.145
AGGGCCCT	-0.147
AAACATGG	0.11
CACTTTCC	0.0173
CGTGAAGC	-0.194
GGAGGAAC	-0.147
CCGACATC	-0.166
AGGAACCA	-0.124
CTGAGGGC	-0.272
ATTAACGA	0.25
AATACCCG	0.0107
AGGTGAGA	-0.00605
ACCTACGA	0.0282
CGGGGACC	-0.329
AGTGGTGC	-0.214
ATGGCTAC	0.14
ACGACCAT	-0.103
ATCATTGC	0.0876

Set 5
Target: Histone acetyltransferase KAT6A, winged helix 1, GST fusion (KAT6A, Homo sapiens, UniProt Q92794, residues 1-85)
Technique: protein binding microarray
Form: double-stranded DNA, one strand shown
Matrix: in vitro
Concentration: not given
Notes: 8-mer, flanks averaged, mean of 2 arrays, mostly near background
Baseline: not given
Direction: higher = stronger binding
Residues (chain): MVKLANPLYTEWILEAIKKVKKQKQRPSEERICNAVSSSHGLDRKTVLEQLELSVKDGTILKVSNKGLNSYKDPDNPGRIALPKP
Sequence	E-score
CACTACTG	-0.055
CATCTAGC	-0.0985
GCGTTTAC	0.26
CTTAGCAA	-0.158
ATACTTAA	-0.0693
ATAGGGAG	-0.116
CGTTACAC	0.174
CGCAAACG	0.208
AATATGCG	0.0627
CAGTAATA	-0.0323
AGCTCCGC	0.233
CGGTGCAG	0.215
CCTTAGCG	0.296
GGACCACA	-0.118
AATAAAAT	-0.17
AGAATTAC	0.0228
ACGCCCCT	-0.0419
CCCTGGCA	-0.153
CCCGGAAG	0.175
ACCCCTCG	-0.094
AACGAAGA	-0.131
TGCTGTAA	-0.197
CAACAACC	-0.19
ACCCGCAG	0.256
AACTGAGA	-0.154

Set 6
Target: Cln2 (Saccharomyces cerevisiae)
Observed: peptide binding
Technique: competitive growth sequencing
Form: peptide
Organism: Saccharomyces cerevisiae
Strain: unfused Cln2 strain
Notes: peptide tiling library
Direction: direction not given
Molecule	enrichment score
LRRKLFLDGNGSIS	-1.29
LRRQLSFSED	0.52
RKLHFEDEVT	0.34
ARKRLELGNLGNPQ	-0.401
DWDTVERQEEEAPSWD	0.914
KVKRRLDLDIDGLQKE	-1.05
TTTTSPRTPPPLTVQD	1.33
VSRNLRSSLKSSLHTL	-1.92
NFETPEAETPIRSPFK	0.677
RKLDLEGIGR	-0.99
SCCKRKLVVGNGPEGP	-0.503
PPTFLSTGEIHAFLSS	-0.628
NNIRKALSFDNRGEEH	-0.637
GAEELEDLVHFSVSEL	1.25
PPKPLKKLRFDIEGSD	0.213
GFGFLLFICKLTF	-0.0624

Repeated from above (set 3):
Modification	mean fluorescence intensity [a.u.]
2'F-ANA at 1 2 3 5 7 8 11 15	57.6
2'F-ANA at 1 2 3 5 8 11 12	115
2'F-ANA at 3 6 11 14	509
2'F-ANA at 1 2 4 6 9 10 11 13 15	47.9
2'F-ANA at 4 5 6 10 13 14 15	45.2
2'F-ANA at 2 5 6 7 8 10 11 12	54.7
2'F-ANA at 1 4 6 8 10 14	45.6
2'F-ANA at 1 3 4 7 10	65.8
2'F-ANA at 1 4 5 6 8 9 11 13 15	68.5
2'F-ANA at 5 7 9 14	46.2
2'F-ANA at 3 5 8 9 10 12 13 15	63.4
2'F-ANA at 2 3 5 7 10 11 13 14 15	57.9
2'F-ANA at 1 2 10 11 13 14	53.6
2'F-ANA at 1 2 4 6 8 11 12	200
2'F-ANA at 2 3 4 8 13 14 15	257
